Measurements gathered from unrelated publications.
Every numbered part comes from another study and shows a few of its results, in no order. Changes are numbered by the printed parent chain.

Series 1 — target: CCND1, cyclin fold, Cln2 fusion (human); method: yeast growth competition, sequencing; sample: yeast; setting: weak parent motif; baseline: not given; direction: higher = stronger binding
Parent: E2F7 docking peptide (human); SSAQRRLEIPSGG
Variant | normalised enrichment score
R5K | -0.318
S11A | -0.0244
S2A | -0.204
G13A | 0.203
R5A | 0.832
G12A | -0.347
L7A | -0.0434
R5K I9F | 0.868
I9L | 0.45

Series 2 — method: protein-binding microarray; molecule type: double-stranded DNA, one strand shown; sample: in vitro; concentration: not given; direction: higher = stronger binding
Target: Hepatocyte nuclear factor 3-beta, forkhead domain (FOXA2, Homo sapiens, UniProt Q9Y261, residues 142-269)
Setting: k-mer, scored over probes, only values ≥0.25
Target sequence (chain): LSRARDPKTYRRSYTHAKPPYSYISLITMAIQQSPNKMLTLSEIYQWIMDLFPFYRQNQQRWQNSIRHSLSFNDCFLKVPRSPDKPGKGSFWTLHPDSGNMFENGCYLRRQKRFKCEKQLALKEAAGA
Sequence | E-score
AATACCTA | 0.314
ATATGTTG | 0.347
AATAGCGT | 0.253
TGGATACA | 0.258
CATACATC | 0.263
ATGTGTAA | 0.331
CTAGTACA | 0.253
AGAAGTAT | 0.269
CAAACATG | 0.315
TGTTACAA | 0.307
GTAATCTA | 0.299
TATGATAA | 0.295
CATAGCAC | 0.251
GATATCTA | 0.252
GTATAAAA | 0.306
ACGGATAC | 0.259

Series 3 — method: DHFR PCA, deep sequencing; sample: yeast; with: (+)-ABA 4.8 µM; baseline: wild-type fitted maximum; direction: higher = stronger binding
Target: ABI1, truncated, D143A, DHFR fusion (Arabidopsis thaliana)
Setting: methotrexate growth selection, single substitutions
Parent: PYL1, truncated, DHFR fusion (Arabidopsis thaliana); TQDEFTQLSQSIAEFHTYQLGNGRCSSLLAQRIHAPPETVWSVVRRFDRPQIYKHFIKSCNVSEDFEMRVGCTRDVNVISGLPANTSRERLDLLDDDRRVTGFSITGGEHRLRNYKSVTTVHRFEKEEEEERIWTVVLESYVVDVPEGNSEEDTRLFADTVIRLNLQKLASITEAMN; partner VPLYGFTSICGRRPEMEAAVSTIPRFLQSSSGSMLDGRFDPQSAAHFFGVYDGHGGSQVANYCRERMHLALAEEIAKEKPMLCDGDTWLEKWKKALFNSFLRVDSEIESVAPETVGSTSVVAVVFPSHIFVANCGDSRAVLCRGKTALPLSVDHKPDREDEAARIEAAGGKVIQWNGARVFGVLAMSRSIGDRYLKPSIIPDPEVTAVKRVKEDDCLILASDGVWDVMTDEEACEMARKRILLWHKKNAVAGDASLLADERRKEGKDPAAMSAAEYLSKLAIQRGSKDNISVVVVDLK
Variant | relative binding score [%]
C25A | 75.4
V40T | -0.961
A35P | 4.89
D96P | -3.02
I133F | 68.4
D65I | 17.2
T6F | 61.9
G107H | 18.7
L8Q | 31.6
N22I | 70.1
S63N | 66.7
T119R | -7.06
V78F | 80.4

Series 4 — method: RNA Bind-n-Seq; molecule type: RNA; sample: in vitro; concentration: 1 µM; setting: whole 134-nt RNA, ends assumed; with: 150 mM KCl; baseline: input library; direction: higher = stronger binding
Target: Ras GTPase-activating protein-binding protein 1, C-terminal RGG region (G3BP1, Homo sapiens, UniProt Q13283)
UniProt Q13283, sequence (whole entry, looked up): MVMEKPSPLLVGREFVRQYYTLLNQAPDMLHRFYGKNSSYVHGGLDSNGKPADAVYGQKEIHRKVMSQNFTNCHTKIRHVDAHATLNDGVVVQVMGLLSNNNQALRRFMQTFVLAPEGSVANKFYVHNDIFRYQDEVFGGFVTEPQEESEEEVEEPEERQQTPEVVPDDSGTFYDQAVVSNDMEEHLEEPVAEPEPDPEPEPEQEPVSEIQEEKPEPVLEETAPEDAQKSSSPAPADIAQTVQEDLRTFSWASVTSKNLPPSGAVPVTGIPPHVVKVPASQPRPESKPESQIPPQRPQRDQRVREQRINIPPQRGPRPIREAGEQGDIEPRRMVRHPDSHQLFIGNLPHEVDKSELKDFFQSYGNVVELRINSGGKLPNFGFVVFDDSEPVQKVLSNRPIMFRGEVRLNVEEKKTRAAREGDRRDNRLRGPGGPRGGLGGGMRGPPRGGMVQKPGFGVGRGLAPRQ
Sequence | log2 enrichment
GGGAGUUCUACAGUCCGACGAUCUCCUGUGCUACACAUCGUAUGUACCGAAUCAAACCCAAAUUUUUUUAAACCCCCCCAAAAAAGUAUUAUGUUACGCCGUUCGGAUCUGCAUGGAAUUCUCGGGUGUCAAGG | -0.485
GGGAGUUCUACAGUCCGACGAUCUCCUUUCUGUCAUUUUACACCCACAGUUGAAGAUUCCUGUCUCUGGAUCCAAAUCAGAGGGCCUUCUCUACGUCCACUCAUCCAGAGGUGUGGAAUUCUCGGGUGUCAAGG | -1.8
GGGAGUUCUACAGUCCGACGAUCCACAGACAACACGCACCCACACAGACACAGAGGGAAGGGGUUGGGAUGGAAACAGGGUGCACAGCAGGGCGGGGUAGGACCCCAGCCCCUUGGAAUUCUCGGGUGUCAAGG | -0.347
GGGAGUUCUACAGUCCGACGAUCCACAGACAACACGCACCCACACAGACACAGAGGGAAGGGGUUUGGAUGGGGACAGGGUGCACAGCAGGGCGGGGUAGGACCCCAGCCCCUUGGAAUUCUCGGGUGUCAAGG | -0.321
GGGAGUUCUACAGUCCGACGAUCUUCACACCAAGCUGGGGAACAUCAAGACCUUAAACCUGGCAGGCAACCUCCUAGAGAGUCUGAGUGGCCUGCACAAGCUCUACUCACUGGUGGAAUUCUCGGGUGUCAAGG | -1.93
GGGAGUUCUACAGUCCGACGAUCAGUCCUGUGCUACACAUCGUAUGUACCGAAUCGGCCCCCGGGGCCCCCGGCCCCCGGAAAGUAUUAUGUUACGCCGUUCGGAUCUGCACUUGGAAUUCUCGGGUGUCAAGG | -1.69
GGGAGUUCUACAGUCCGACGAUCACCAUGCAGGUGGGCAUCUUUGGGAAGUGGGGCAAGGGGGGGAUAGGGAGGUGGGUAACACUUUGGGAACAGGUGGUCCCAGGUCGUUUCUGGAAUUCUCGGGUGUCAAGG | 2.07
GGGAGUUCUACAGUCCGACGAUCUCAAGUCCUGUGCUACACAUCGUAUGUACCGAAUCGGGUUUGGUUUGGUUUGGGAAAGUAUUAUGUUACGCCGUUCGGAUCUGCACUUCCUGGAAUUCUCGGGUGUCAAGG | -1.21
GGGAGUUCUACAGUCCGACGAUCACCAUGCAGGUGGGCAUCUUUGGGAAGUGGGGCAAGGGGGGGAUAGGGAGGGGGGUAACACUUUGGGAACAGGUGUUCCCAGGUCGUUUCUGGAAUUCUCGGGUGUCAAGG | 2.19
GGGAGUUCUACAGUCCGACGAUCUGCCAAAGUAUGGCAAGAAAUUGCUCCUGGAAAUACUGAUGCCACCCCAGUAACUCAUGGAACUGAAAGCUCUUGGCAUGAAAUAGCAGCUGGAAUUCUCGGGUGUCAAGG | -0.142
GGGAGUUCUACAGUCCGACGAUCUAACUUUAGAGGAGGAUCUGAUGGAUAUGGCAGUGGACGUGGAUUUCGGGAUGGCUAUAAUGGGUAUGGAGGAGGACCUGGAGGUGGCAAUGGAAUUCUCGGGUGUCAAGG | -0.677
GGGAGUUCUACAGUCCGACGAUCAAGUCCUGUGCUACACAUCGUAUGUACCGAAUCGGGGCCCGGGGCCCGGGCCCGGGGAAAGUAUUAUGUUACGCCGUUCGGAUCUGCACUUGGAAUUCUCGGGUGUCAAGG | -2.46
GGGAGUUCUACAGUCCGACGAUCACCAUGCAGGUGGGCAUCUUUGGGACGUGGGGCAAGGGGGGGAUAGGGAGGGGGGUAACACUUUGGGAACAGGUGGUCCCAGGUCGUUUCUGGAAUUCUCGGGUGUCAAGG | -1.09
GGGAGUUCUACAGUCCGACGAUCUCCUGUGCUACACAUCGUAUGUACCGAAUCGGGGUUUUUUGGUUUUUUGGGUUUUUUGGAAAGUAUUAUGUUACGCCGUUCGGAUCUGCAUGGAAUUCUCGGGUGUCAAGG | -0.684

Series 5 — method: RNA Bind-n-Seq; molecule type: RNA; sample: in vitro; concentration: not given; baseline: input RNA pool; direction: higher = stronger binding
Target: RING finger protein unkempt homolog, zinc fingers 1-6, GST-SBP tag (UNK, Homo sapiens, UniProt Q9C0B0, residues 30-357)
Setting: RNA with constant flanks, human and mouse sites, ends assumed
Target sequence (chain): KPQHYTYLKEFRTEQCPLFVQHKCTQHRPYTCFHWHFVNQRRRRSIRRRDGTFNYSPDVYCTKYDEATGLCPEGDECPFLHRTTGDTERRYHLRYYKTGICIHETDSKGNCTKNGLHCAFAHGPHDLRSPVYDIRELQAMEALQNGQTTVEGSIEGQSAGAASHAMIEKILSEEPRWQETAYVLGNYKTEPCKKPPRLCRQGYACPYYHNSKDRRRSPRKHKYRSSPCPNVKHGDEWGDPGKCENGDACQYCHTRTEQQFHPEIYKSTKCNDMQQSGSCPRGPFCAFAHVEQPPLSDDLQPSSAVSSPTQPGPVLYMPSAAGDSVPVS
Sequence | bound/input enrichment [ratio]
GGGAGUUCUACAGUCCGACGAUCAUCUUUAUCUCACAAGAUGAAAUACAGUCAUUUAUGGCUAAUAACCAGUCUUUCUACAGCAAUAGAGAACAAUACCGACAGCAUCUGAAGGAGAAAUUUAAUAAAUACUGCCGGUUAAAUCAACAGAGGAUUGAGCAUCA | 0.195
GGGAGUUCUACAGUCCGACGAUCCACAUUUUCCCCUUACUCCUCAACAAUUGAAGUGGACUUUUAUGGGGUGGGGGGUGAUUGGCAAAAGGUAAUGUGUUCCAUUUAUAAUUUUGGUCUAUGGAGUUUUCUAACUUAGGAAGCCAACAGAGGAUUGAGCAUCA | 0.341
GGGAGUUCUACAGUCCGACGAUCGCCUACACCUGAGUCCAGGCAUCCAGCCAGGGCUCCAGCUCGAGGUGACAUGGAGGACAGGAGGCCCCCAGGGCAGAAGCCAGGCCCUGACCUCACCUCUGCUCCUGGGAGAGGAAGCCACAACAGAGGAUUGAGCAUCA | 0.0528
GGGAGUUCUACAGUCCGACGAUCCACCUGGGCGUAUUCACGCUGGGCGCCAGGGCCGACAGCUACUAUGAGUACCUGCUGAAGCAGUGGAUCCAGGGCGGGAAGCAGGAGACACAGCUGCUGGAAGACUACGUGGAAGCCAUCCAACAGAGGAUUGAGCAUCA | 0.148
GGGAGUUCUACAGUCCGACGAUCGAAACAAGAUGGCGGGUUCGUGGUGAGAAGCCGUCAAGCAGGAGUAGAAAUUGGUAUGCUUAGAAGCAGAUUCUAAAAGCAGUUUCUCUUCAGAACAUCUUUUUUCAUACCACUUGAUAACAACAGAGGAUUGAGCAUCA | 0.224
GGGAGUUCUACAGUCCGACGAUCUUUGUAGGCUUCCUGGGGUGCUAUGGGGCCAUCCAGGAGUCCCAGUGUCUGCUGGGGACGUUCUUCACCUGCCUUGUGAUCCUGUUUGCCUGUGAGGUGGCUGCAGGCAUCUGGGGCUUCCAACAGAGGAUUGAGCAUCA | 0.107
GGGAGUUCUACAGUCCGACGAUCACCUUUGUGGACAAGGAUUUUGUACCAUAUCAAGAUAUAAGGAUAAAUCAUACAGUGAUUUUAGAUGAUCCAUUUGAUGACCCUCCUGAUUUAUUAAUUCCUGAUCGAUCACCCGAGCCUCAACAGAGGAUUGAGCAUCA | 0.13
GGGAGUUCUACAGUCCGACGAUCCCUCCAAGGCAAAGACAGGAGAGCUAUGCUGGUGGUGAGGCGGCAGGCUGCACGCUGGACAACAGCUUAACCAAUAUCCAGUGGCUUGGAAAGAUGAGUUCUGACGGGCUGGGCCCCUGCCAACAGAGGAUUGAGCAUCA | 0.0452
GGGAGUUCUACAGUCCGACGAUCAGGCCCCAGGCCCAACCAAAAGAGGCCUGGAGCCUGUCGGACUCUUGCCAACCUCCUGUGUCUCAGAGAACAGUGCAUACCACGUUACCAUCUCCUUCAGAUUCGAGCCACUGUAAUGCGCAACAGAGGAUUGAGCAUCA | 0.0695
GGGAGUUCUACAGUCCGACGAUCUGUGGCUUUAACAUUUUAUGCAACUAUUUAUGAAGACCUCUGUUGUACCUGUAAUAAAUAUAUAGAAAAAGCACAUACUUCGUAUGGUGAGCUUUAUGGUUUUGUGUGUGUGUUGGGGUUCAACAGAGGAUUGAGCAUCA | 0.648
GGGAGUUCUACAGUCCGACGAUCAAUGUACAGGAAAGGGAAGCACAGUUUGGAACAACAGCAGAGAUAUAUGCCUAUCGAGAAGAACAGGAUUUUGGAAUUGAGAUAGUGAAAGUGAAAGCAAUUGGAAGACAAAGGUUCAAACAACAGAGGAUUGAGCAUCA | 0.368
